# Measured values pooled from the literature.
# Each line is one published result; not all experiments were run side by side. Several values in a cell are separate wells, animals, samples, runs or records.
# LCK: Tyrosine-protein kinase Lck (LCK, Homo sapiens, UniProt P06239)
SMILES,target,test,conditions,scale,measurement,result
CCCO[C@H]1[C@H](O)[C@@H](N)[C@@H](O[C@H]2[C@H](O[C@@H]3O[C@H](CO)[C@@H](O[C@H]4O[C@@H](CN)[C@@H](O)[C@H](O)[C@H]4N)[C@H]3O)[C@@H](O)[C@H](N)C[C@@H]2N)O[C@@H]1CO,LCK,cell-free assay,10 µM,,remaining signal,35%
C[C@H](NCc1ccc(-c2ccc(C(F)(F)F)cc2)cc1)C(N)=O,LCK,"kinase activity, SafetyScreen panel","1 µM, with: 200 µg/mL poly(Glu:Tyr)",,inhibition,0%
O=C(O)c1ccc(-c2nc(-c3ccccc3Cl)c3sccn23)cc1,LCK,"radioligand binding, safety screen panel",10 µM,relative to: control,specific binding,105% and 113%
C/C(=N\OCCCN1CCCCC1)c1ccc(C(F)(F)F)cc1,LCK,"antagonist, TR-FRET",10 µM,,inhibition,25.8%
O=C1NC(=O)c2c1c1cc(F)c[n+]3c1c1c2c2cc(O)ccc2[n]1[Ru-4]312([N]=C=S)[S+]3CC[S+]1CC[S+]2CC3 (stereo not shown),LCK,enzyme activity,"100 nM, human enzyme, with: 10 µM ATP",relative to: untreated,remaining activity,35%
COc1ccc(F)cc1S(=O)(=O)Nc1cnc2c(c1)C(=O)NCCO2,LCK,"enzyme activity, inhibitor",10 µM,,inhibition,-21%
Cc1cc(-c2ccc3ccccc3c2)nnc1NCCN1CCN(C)CC1,LCK,enzyme activity,concentration not given,,inhibition,negative
Cc1cc(Nc2nc(C[C@@]3(C(=O)O)CCN(Cc4cccc(Cl)c4F)[C@H](C)C3)cc(C)c2F)[nH]n1,LCK,"enzyme activity, inhibitor",10 µM,,inhibition,49.2%
CS(C)(=O)=Nc1ccc(-c2ccc(-c3nc4cc(O[C@@H]5CO[C@H]6[C@@H]5OC[C@H]6O)[nH]c4cc3F)cc2)cc1,"Tyrosine-protein kinase Lck, phosphorylated (LCK, Homo sapiens, UniProt P06239)","enzyme activity, inhibitor",10 µM,,inhibition,-8%
CCN(CC)CCOc1ccc(-c2nnn(Cc3ccc(OC)cc3)c2N)cc1,LCK,enzyme activity,10 µM,,inhibition,0.01%
CC(C)[C@H]1NC(=O)C[C@H]2/C=C/CCSSC[C@@H](NC1=O)C(=O)N[C@H](Cc1cccc3ccccc13)C(=O)NCC(=O)O2,LCK,"enzyme activity, inhibitor",10 µM,,inhibition,-5.9%
CCc1nnc(-c2c(OC)cc(-c3cnc4cc(-c5cnn(C)c5)ccn34)cc2OC)o1,LCK,,10 µM,,inhibition of specific binding,55%
N[C@H](C(=O)N1CCCC1)C1CCN(c2nccc3c(-c4ncc(Cl)cc4Cl)cccc23)CC1,LCK,"enzyme activity, inhibitor",10 µM,,inhibition,16%

# A few entries again:
SMILES,target,test,conditions,scale,measurement,result
CC(C)[C@H]1NC(=O)C[C@H]2/C=C/CCSSC[C@@H](NC1=O)C(=O)N[C@H](Cc1cccc3ccccc13)C(=O)NCC(=O)O2,LCK,"enzyme activity, inhibitor",10 µM,,inhibition,-5.9%
